# Results of several laboratories.
# Every numbered part comes from another study and shows a few of its results, in no order.

# Series 1 — technique: RNA Bind-n-Seq; form: RNA; medium: in vitro; tested at: 200 nM; notes: whole 134-nt RNA, ends assumed; with: 150 mM KCl; baseline: input library; reading: higher = stronger binding
# Target: Ras GTPase-activating protein-binding protein 1, full length (G3BP1, Homo sapiens, UniProt Q13283)
# UniProt Q13283, sequence (whole entry, looked up): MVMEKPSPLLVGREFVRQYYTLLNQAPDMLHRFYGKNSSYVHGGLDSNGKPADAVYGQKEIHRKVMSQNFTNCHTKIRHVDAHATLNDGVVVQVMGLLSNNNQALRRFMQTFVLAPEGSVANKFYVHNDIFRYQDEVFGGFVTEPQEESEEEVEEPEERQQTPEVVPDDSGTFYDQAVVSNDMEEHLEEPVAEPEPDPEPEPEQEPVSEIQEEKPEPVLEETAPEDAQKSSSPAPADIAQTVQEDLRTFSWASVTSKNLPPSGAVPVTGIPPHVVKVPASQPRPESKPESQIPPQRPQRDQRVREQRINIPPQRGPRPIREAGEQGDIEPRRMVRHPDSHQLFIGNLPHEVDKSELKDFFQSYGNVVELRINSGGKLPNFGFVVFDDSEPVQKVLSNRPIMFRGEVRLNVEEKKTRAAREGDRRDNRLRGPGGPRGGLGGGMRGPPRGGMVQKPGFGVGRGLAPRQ
Oligonucleotide,log2 enrichment
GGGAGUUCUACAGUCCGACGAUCUCCUGUGCUACACAUCGUAUGUACCGAAUCGGGUUUUUUGGGGUUUUUUGGUUUUUUGGAAAGUAUUAUGUUACGCCGUUCGGAUCUGCAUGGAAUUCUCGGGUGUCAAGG,-0.412
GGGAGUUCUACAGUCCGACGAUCACCAUGCAGGUGGGCAUCUUUGGGAAGUGGGGCAAAGGGGGGAUAGGGAGGGGGGUAACACUUUGGGAACAGGUGGUCCCAGGUCGUUUCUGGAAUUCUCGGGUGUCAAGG,0.959
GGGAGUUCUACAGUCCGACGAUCGUCCUGUGCUACACAUCGUAUGUACCGAAUCGGGGAGGGGUUUUUGGGGAAAAAGGGGAAAGUAUUAUGUUACGCCGUUCGGAUCUGCACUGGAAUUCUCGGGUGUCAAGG,0.462
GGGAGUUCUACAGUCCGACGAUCUAACUUUAGAGGAGGAUCUGAUGGAUAUGACAGUGGACGUGGAUUUGGGGAUGGCUAUAAUGGGUAUGGAGGAGGACCUGGAGGUGGCAAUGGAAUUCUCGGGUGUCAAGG,0.479
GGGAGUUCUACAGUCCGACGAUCUGUGCUACACAUCGUAUGUACCGAAUCGGGGAAAAAGGGGAAAAAAAGGGGAAAAAAAGGGGAAAGUAUUAUGUUACGCCGUUCGGAUCUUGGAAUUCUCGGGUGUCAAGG,-0.265
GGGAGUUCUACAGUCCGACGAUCCAAGUCCUGUGCUACACAUCGUAUGUACCGAAUCGGGGAAAAGGAAAAGGAAAAGGAAAGUAUUAUGUUACGCCGUUCGGAUCUGCACUUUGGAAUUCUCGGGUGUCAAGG,-0.759
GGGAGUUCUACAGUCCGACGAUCACCAUGCAGGUGGGCAUCUUUGGGAAGUGGGGCAAGGGGGGGAUAGGAAGGGGGGUAACACUUUGGGAACAGGUGGUCCCAGGUCGUUUCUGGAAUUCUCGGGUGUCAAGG,1.01
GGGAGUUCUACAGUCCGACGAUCAAGUCCUGUGCUACACAUCGUAUGUACCGAAUCGGGUUUUUGGGUGGGUUUUUGGGAAAGUAUUAUGUUACGCCGUUCGGAUCUGCACUUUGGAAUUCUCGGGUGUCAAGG,0.0794
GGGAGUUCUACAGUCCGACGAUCCCUCAAGUCCUGUGCUACACAUCGUAUGUACCGAAUCGGAGGAAAAAGGUGGAAAGUAUUAUGUUACGCCGUUCGGAUCUGCACUUCCAGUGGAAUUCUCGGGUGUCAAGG,-0.0857
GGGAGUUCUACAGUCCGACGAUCUGGGAGGUGGAUUUUGUUUAUUUUUUUAGCUCAUUUCCAGGGGUGGGAAUUUUUUUUUAAUAUGUGUCAUGAAUAAAUUUGUUUUUGAAAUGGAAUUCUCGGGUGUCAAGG,0.377
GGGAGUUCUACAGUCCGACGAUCCACAGACAACACGCACCCACACAGACACAGAGGGAAGGGGUUGGGAUGGGGACAGGGUGCACAGCAGGGCGGGGUAGGGCCCCAGCCCCUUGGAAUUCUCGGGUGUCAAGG,1.95
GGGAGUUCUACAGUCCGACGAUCAAGUCCUGUGCUACACAUCGUAUGUACCGAAUCGGGGAGGGGAAAGGGGAAAGGGGAAAGUAUUAUGUUACGCCGUUCGGAUCUGCACUUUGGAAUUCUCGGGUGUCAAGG,0.839
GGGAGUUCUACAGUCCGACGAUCGUCCUGUGCUACACAUCGUAUGUACCGAAUCGGGGCCCCCGGCCCCCGGGCCCCCGGGGAAAGUAUUAUGUUACGCCGUUCGGAUCUGCAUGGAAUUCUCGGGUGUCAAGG,-0.847
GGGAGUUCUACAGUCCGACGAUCCACAGACAACACGCACCCACACAGACACAGAGGGAAGGGGUUGGGAUGGGGACAGGGUGCAAAGCAGGGCGGGGUAGGACCCCAGCCCCUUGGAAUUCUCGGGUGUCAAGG,1.69

# Series 2 — technique: RNA Bind-n-Seq; form: RNA; medium: in vitro; tested at: 100 nM; baseline: input RNA pool; reading: higher = stronger binding
# Target: RING finger protein unkempt homolog, zinc fingers 1-6, SBP tag (UNK, Homo sapiens, UniProt Q9C0B0, residues 30-357)
# UniProt Q9C0B0, sequence (30-357, looked up): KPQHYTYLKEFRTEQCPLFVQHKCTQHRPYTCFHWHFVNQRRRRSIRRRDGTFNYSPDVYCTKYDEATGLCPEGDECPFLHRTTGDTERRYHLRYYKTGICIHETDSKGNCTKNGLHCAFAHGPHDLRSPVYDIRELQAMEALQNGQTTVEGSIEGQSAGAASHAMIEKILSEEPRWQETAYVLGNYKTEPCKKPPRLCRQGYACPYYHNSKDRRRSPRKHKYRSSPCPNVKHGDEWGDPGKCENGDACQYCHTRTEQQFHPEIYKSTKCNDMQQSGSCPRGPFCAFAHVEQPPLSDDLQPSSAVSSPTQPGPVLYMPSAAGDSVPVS
# Notes: RNA with constant flanks, vertebrate orthologous sites, ends assumed
Oligonucleotide,bound/input enrichment
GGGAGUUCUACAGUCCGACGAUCAUCUCGUGCCUCUCCCCACGGGGAGUGGGGGAAGCUGAAUGACCCUCAGCUGUUCCAAUCCAGUGGGUUUUUUUAAUUUGUUUUUUUGAUUAAAAAAUUACUGUAUUUAUUAUGACAAUGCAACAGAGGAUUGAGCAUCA,0.292 ratio
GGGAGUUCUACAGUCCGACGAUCUCCUGCUCCUGCCGGGGUGUGACCGAGGCUGAAGCAUCUACCAGGGCUGCAAGGGGUCCACGGUAUUUUUUUUUUUGCUGCCUUGGUCCCCAGAACCUUCAAGCAACAGUGGCUGUAGAUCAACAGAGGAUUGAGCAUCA,0.681 ratio
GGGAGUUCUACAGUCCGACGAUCCAUGUCCUUGUUACUGUGGUAUUUAAAAUAUCCAUAGUACUCACUUUUUCCAAAUGAUUCUAUUAAUUGCCUAGAAAUAUCUCUUAUCUAUUAUUUAUCAAUAUUUCCCAGUAUUUUUAUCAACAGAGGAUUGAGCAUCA,0.808 ratio
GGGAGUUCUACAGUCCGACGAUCAGCUUCUGGCGACAUUUGGCCUGGCCUUUCAGCGUAUGAUAACAGUCCAAGGUCACCCCACAGUCCUUCUAUUGCCACCCCGCCUAGUCAGAGUUCAUCUUGCUCUGAUGCCCCUUUGCUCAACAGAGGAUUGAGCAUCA,0.566 ratio
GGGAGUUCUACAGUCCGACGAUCCUACUAUAAACAACUCAGGGCAGUAUUCUCGAUAUCCUUACAGUAACCUAAAUCAGGGAUUAGUUAACAAUACAGGGAUGAAUCAAAAUUUAGGCCUUACAAAUAACACUCCAAUGAAUCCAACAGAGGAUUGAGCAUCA,1.51 ratio
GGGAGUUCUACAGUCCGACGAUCUAAGUGCACGAGCGUCUGCUCACUCCAGAGCGCCUACACUGCUCAUCAUGUGUGUCAUCAUGUGUACACACCCGGUCCCCAAACACAGCGGUGUAGAUUCAAAGGGACACCGAUGCUUCCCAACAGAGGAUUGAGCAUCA,0.253 ratio
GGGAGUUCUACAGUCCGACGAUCAUUCAGAAUUAUAGCAAGAGCCAAGCAGUAGCAUUGUUUCUCCAUAAAUGUAGAAAUAAUUAGAUCCAGAUUGUUUCCUUAUUCAGUUUCAAAAAUAAAAAAUACCUCAGUGCUAUGUUUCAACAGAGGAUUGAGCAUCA,1.02 ratio
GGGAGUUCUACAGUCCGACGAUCAUCCCUCAGUGACAGUAUGCCUUCUGUAGCAGAUUCCCACUCUAGUCAUUUUUCUGAAUUUAGUUGUUCUGACCUAGAAAGCAUGAAAACUUCUUGUAGUCAUGGUUCCAGUGAUUAUCACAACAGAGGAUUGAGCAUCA,2.93 ratio
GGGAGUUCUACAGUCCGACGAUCAAACCCCGAUUUUAGAUGUGAUAUCUAGCUUUCAUUCCAGUUUGUUUUGUCUUUUCUUGUUUAGAUACCAACCUUUUAAAUUCUUGCAUUUUAGUAAGAAAGCUACCUUUUUAUGGAUGUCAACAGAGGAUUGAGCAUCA,0.826 ratio
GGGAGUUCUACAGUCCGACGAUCUCACUCUACUCUUGUUUUGGAAAUGGUACAAAAUACCUAAGGUGAAAUCCUGGCCCCAUUGAAGUCAAUGGGAGUUUUGUGGUGGACUUCAAUGGAGCUGGGAUUUCACAACUAGUCAUUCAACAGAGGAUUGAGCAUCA,1.46 ratio
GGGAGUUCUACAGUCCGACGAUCACUGUUGUUAAGCACUGUGUUCCAGACCGUGUCUGACUUAGUGUAACCUAGGAGAUUUUAUAGUUUUAUUUUAAUGAAAUCCUAAUUGACGCACAGCAGUGGGGAGAACAGCGUCUUUUACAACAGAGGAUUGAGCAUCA,3.87 ratio

# Series 3 — technique: RNA Bind-n-Seq; form: RNA; medium: in vitro; tested at: 365 nM; baseline: no-protein control; reading: higher = stronger binding
# Target: RNA binding protein fox-1 homolog 2, RRM domain, GST-SBP tag (RBFOX2, Homo sapiens, UniProt O43251-10, residues 100-194)
# Notes: natural RNA segment, single round, ends assumed
# Target sequence (chain): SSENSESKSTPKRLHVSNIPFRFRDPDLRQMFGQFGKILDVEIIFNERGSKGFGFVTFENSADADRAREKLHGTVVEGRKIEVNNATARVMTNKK
Oligonucleotide,RBNS enrichment (R)
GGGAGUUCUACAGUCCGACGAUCGCAACAGUGGCCCGUGCCAAAGCACUUACCAAAGUGAUGAUGACUAAGGCCCUGUCAUUAAUUCCAUGUGUCAAUACUGCCCUGUAGUACACAGAGCAGACAAGAAAGAAUGGAAUUCUCGGGUGCCAA,0.247
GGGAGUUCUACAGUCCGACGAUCAGAAGGACUCCUGAAGUUACUGCUGCUCAGAAAAACAGUUCCUUUAAUGUGGAAGAGCCAUUUCAUAGGUCAUAGGUGGUAUGGUAUAUUUCUUCAGAGUCAACCUUGGCUGGAAUUCUCGGGUGCCAA,0.585
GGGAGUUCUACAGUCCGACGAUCUUCUGCACCAGACAACCUGUUGAGGCGUAUAACCUGAUCUGUACAUUUUUUUAAGUGUGCAGGGCAGCCUGGACACAGCUUAGCGUUCUACGUGUAUAGUUCUCCAUGCUUGGAAUUCUCGGGUGCCAA,0.202
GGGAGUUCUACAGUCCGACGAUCCCUGGGUAGGAAAAUUAGAAGCAAGCUGGAUGCAGUGGCUCAUGCCUGUAAUCCCAACACUUUUGGGAGGUCCAGGCAGGAGGAUCACUUGGGCCCAGGAGGUCAAGCCUUGGAAUUCUCGGGUGCCAA,1.37
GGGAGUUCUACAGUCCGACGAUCUCUGAAAGACCCACAGCGAUCUGCCUCCUCAGCAUCCAGCGUGCUGGCUCCAGAGCUGCUGUUCCCAUCCACGCCAGUGGCCUCGGUCCCUUCUGUGCCAGGCAUUCUGGUGGAAUUCUCGGGUGCCAA,0.273
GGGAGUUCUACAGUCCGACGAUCGUGACUGUCACAACUGUUAUGUUUUCCAGUAAACUAGAAGUACGAUAUUUGAUAAUUAUAUUUGUAUUUCACCACCUAAAUGUAAUGUUGAUUCCUCAAGAAUGAAAUGAUGGAAUUCUCGGGUGCCAA,1.34
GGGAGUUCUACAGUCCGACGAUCGCCAAGCCCAGGAUGCCAGCUGGCACCUCUGCAAUCUCCCCACCAAAUACACAGAGCCAGCUCUACCCACUCCUAAGAGCAGAGGCCAACUCUAAAGAAAGGUCUCAGGUUGGAAUUCUCGGGUGCCAA,0.655
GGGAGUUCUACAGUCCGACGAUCAGCGAGCAUGGAGUGCCUCAGCUGACCCUGUUCCCGUUCCCUUGCCCCUGCCUCUUCCCUAGUGUCAGCCUACUCCAGGCUCCCAGCUGCCUUGAGAGGCCGCGGACAAAUGGAAUUCUCGGGUGCCAA,0.643
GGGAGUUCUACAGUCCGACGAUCGAAAUCAACUUUAGAGCUUUGCUUUUCUCUGAGUUCAUCCUGCAGUGAAUGACAGGUACUGACAGCCCAACAUUAAGGUGCAAAUAGCCUGUUUGUCAUAUCAGAAGCCAUGGAAUUCUCGGGUGCCAA,0.326
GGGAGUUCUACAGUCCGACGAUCCUCAGCUGAAUGCCUCCAAGUCCCUGGCCUGUAGCUUCUCCCAGGCUUAUCAUCCAAUCCCCUUUAACUGGGAUAAGAAACCAAAGGAGGAAAUAUUCUCUAUGGUAAUCUGGAAUUCUCGGGUGCCAA,0.252
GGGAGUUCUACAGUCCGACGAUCGUCCUCACUAAGCUAGAUAAUGUCUGUGACGGAAGUAAGAAAGUCCUCCUCUGGGAUACGGCACUUACACAUGGGAAGAAUGGUACGGGGAAGUGUAACACCUCAGAAAGUGGAAUUCUCGGGUGCCAA,0.796
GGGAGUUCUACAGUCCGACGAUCCCACUCUGCUCCUUCCACCCAUGAAUUGUGUGUCUGUGUAUUUAAGAGAACUGAGACUAAUGUAUUUUCCAAAAUUUCCUAAGGCUUUCCCCCGUUGUUUACAUGUUGAAUGGAAUUCUCGGGUGCCAA,0.656

# Series 4 — technique: protein binding microarray; form: double-stranded DNA, one strand shown; medium: in vitro; tested at: not given; baseline: not given; reading: higher = stronger binding
# Target: Histone acetyltransferase KAT6A, winged helix 2, GST fusion (KAT6A, Homo sapiens, UniProt Q92794, residues 85-181)
# Notes: 8-mer, flanks averaged, mean of 2 arrays, mostly near background
# Target sequence (chain): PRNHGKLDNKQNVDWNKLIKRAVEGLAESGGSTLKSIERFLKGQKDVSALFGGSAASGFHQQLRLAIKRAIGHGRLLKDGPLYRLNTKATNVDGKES
Oligonucleotide,E-score
CACTGGTC,-0.0312
ATTCTATA,0.0332
GACTCTTA,-0.129
GCGGTTGA,-0.0783
GACGGGCC,0.0679
CATCGAGG,0.0803
CTTTGCTA,0.124
ACCTCAGA,-0.0618
AAGTTGTA,-0.0619
ATGTGAGC,-0.129
ACAAGTTC,0.0463
ATTAGTAA,0.0547
TGACGACA,0.121
GTCGTAGA,-0.0197
CCACGGTA,-0.0125
CATCCATG,-0.0789
CAAGTCGC,0.0654
ACCCTTGC,-0.0847
ATGCCAGA,0.0471
AACCCTTA,-0.00722
ATCGGTCA,-0.144

# Excerpt of the above (series 4):
Oligonucleotide,E-score
AACCCTTA,-0.00722
CCACGGTA,-0.0125
CAAGTCGC,0.0654
CATCCATG,-0.0789
AAGTTGTA,-0.0619
